Measured values pooled from the literature.
Parts stem from different laboratories: compare values within a part only. Substitutions count along the parent as printed.

Study 1
Target: Interferon regulatory factor 5, full length, phosphomimetic (IRF5, Homo sapiens, UniProt Q13568-2, residues 1-514, K96S/S451D/S453D/S456D/S462D)
Method: protein-binding microarray
Molecule type: double-stranded DNA, one strand shown
Matrix: in vitro
Tested at: 250 nM
Setting: 60-bp whole probe
Added: salmon DNA 0.4 mg/ml
Baseline: random background probes
Direction: higher = stronger binding
Constant ends, left off below: GCCTAGCAC … GTCTTGATTCGCTTGACGCTGCTG
Oligonucleotide | log fluorescence [z-score]
TTAAATATCAGTTTCGATTAGTGCTAG | 10.2
GACGGACTGGGGTATCGGGACGTGCTA | 0.2
GACGATTCCAGTGTCGAGACGTGCTAG | -0.0372
GACGGTGTCGGGTATCGGGACGTGCTA | 0.229
TTAGGTTTCGACACTGGGTTGGTGCTA | 6.18
ATGCTTCTGTATTCATGAAGGTGCTAG | 0.445
GACGCACTGAGTATCGAGACGTGCTAG | 1.36
TTATAACTGGGGACTGGATTAGTGCTA | 0.259
CTTCATGTTTTTTTCTACTTGTGCTAG | 1.48
TCTCTTTTATTTTTTTTATTGTGCTAG | 1.83
TCACTTTCCACTTGTCTTTTCGTGCTA | 2.52
TTAGGACTGGGACTGGTTTAGTGCTAG | -0.451
TCAATGTTACATTTATAACTGTGCTAG | 0.546
TTACATTTCAGTCTCGATTAGTGCTAG | 3.51
GACGTACTGGACACTGGGGACGTGCTA | -0.534
GCCGGTCTCCTACTGCTGACGTGCTAG | -0.177
TTAGAACTGATTATCGATTAGTGCTAG | 5.31
GACGGTATCGTGTTTCGGGACGTGCTA | 2.93
TAAATTTTCACGGTGGGTTCGTGCTAG | 0.813
GACGATCGCAGTATCGAGACGTGCTAG | 1.19

Study 2
Target: ABI1, truncated, D143A, DHFR fusion (Arabidopsis thaliana)
Method: DHFR PCA, deep sequencing
Matrix: yeast
Setting: methotrexate growth selection, single substitutions
Added: (+)-ABA 17 µM
Baseline: wild-type fitted maximum
Direction: higher = stronger binding
Starting sequence: PYL1, truncated, DHFR fusion (Arabidopsis thaliana); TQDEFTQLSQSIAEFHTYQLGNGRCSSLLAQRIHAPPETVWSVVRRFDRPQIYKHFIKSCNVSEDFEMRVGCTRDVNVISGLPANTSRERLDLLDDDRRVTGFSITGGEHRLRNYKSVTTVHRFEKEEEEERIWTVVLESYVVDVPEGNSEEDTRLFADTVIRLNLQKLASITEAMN
Substitution | relative binding score
D153M | -0.188%
N22P | 89.5%
S80N | 29.3%
R74E | -2.46%
N177L | 79.8%
D97H | 86%
A84C | 38.5%
I172S | 22.1%
E89Q | -12.8%
K126A | 96.1%
V76G | -3.72%
S42F | 25.5%
R69I | 82.5%
S11T | 81.8%
R90P | -3.97%
V62W | 15.8%
R90S | 38%
V76C | 68.6%
V76W | -19%

Study 3
Target: RNA binding protein fox-1 homolog 2, RRM domain, GST-SBP tag (RBFOX2, Homo sapiens, UniProt O43251-10, residues 100-194)
Method: RNA Bind-n-Seq
Molecule type: RNA
Matrix: in vitro
Tested at: 365 nM
Setting: natural RNA segment, single round, ends assumed
Baseline: no-protein control
Direction: higher = stronger binding
Residues (chain): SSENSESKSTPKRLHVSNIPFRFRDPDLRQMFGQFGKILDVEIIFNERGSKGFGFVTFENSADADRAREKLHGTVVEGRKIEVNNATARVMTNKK
Oligonucleotide | RBNS enrichment (R)
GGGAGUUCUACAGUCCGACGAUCUCAUCAUUUACCCUAGGUAAGAACUUUGAUCACUGCUUACUAGGUAAAGAAUGUUUGUACUGUUCCAAAACCCAGGCUUCUUUAUUCCUUUACCACUAUCCAUGUGAGCAUGGAAUUCUCGGGUGCCAA | 0.437
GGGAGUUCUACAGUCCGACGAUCUCAGGACAAGGAGGCCUCCCUGGGAGAGGGGGCCUUUCUCCCACCAUCACCGCCUGUGUCCUUCAGGGGCUGCUGGAGGGCAGCCCAAAGCCAGGGGCCCACCCCGCCCCUGGAAUUCUCGGGUGCCAA | 0.534
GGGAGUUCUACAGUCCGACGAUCCGGGAGAUUGAGUCUGCACAUCACCAGUUGCCAUGUUCACUGGGCCAGUGCCCACCCGUCCACGUUGCUGACAUUGCCACGCUUUGAGGUGUGGUGGUCGCUGGGACCCGUGGAAUUCUCGGGUGCCAA | 0.396
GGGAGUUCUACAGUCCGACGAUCGAGAGGGCAGAGUACAAUGGGGUGAGGUCCCAGGCGCAUGGAGCAAGGCUCCCUUUCUGGGGAAGCCUCGUGUUGGAGAUAGAGGCAGCAGGCCUGCGUUGCCAGGGAGUUGGAAUUCUCGGGUGCCAA | 3.9
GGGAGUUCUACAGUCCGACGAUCCCGCUCCCUACGCAACAUACUUGAAUUCUUGAGUUCCCUUUGGGGUGAGAAAGGAUUUGAAACCAUAAAGUGUUUUAAAGAAAUGAACUCUUCAGAAACAGACUUCCUCCUGGAAUUCUCGGGUGCCAA | 0.544
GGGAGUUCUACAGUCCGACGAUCAAGUAAAGUAUGCUGGGCUGGUGGUGGUCAGCCUUCCCCUUGCCAAGAAGAGAGCAAUUGAAUCCUGUCCCCAGCUCCCUCCAGCCUGAAGAGUGACCAGUGCUGGCCCGUGGAAUUCUCGGGUGCCAA | 1.35
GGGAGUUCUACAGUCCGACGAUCCUGCCUCCGUGGCUGGGAGACAUUCAUAACACAGAGGACUCAGUUCUGUUGGAAAGCCAGCAUGUGAGACCCUUCCACCAUGCCUCAUUCCAGCCCUCCUUGAGCUCACUUGGAAUUCUCGGGUGCCAA | 0.745
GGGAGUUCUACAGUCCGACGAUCCCUGAGAGCCCAGCCAGGGCCCAUGUGGUCUGCAAAUGGGAGCGGCUGUUUUUGAACACGGGGUCAUUCUGCAGUCAGGACGAACCGGUCCCCGUCGCAGACGGAGUGCAUGGAAUUCUCGGGUGCCAA | 2.96
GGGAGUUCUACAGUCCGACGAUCAAUGGUUCCGACUUGUCCCUCUCUCAGCCCUCCAUGGCCUGGCACGAGGGGAUGGGGAUGCUUCCGCCUUUCCGGGGCUGCUGGCCUGGCCCUUGAGUGGGGCAGCCUCCUGGAAUUCUCGGGUGCCAA | 0.283
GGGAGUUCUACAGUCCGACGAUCGCUCUUGUGAAGCUCCAGGUAGACGGGAAUGUUCCUCGGUUCAGGUGAGAGCCAGAUCUAGAGAGUCAGAACCCGGGGGUCUUGAGAUAGGAGGCAAAGCAGCUAUGGAAUGGAAUUCUCGGGUGCCAA | 0.848
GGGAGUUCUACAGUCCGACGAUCUGAAAUAUUAAAAGACAGAAUCCAAAGAACGCCUUUAACUCUAGUCUUAUUAGGAUGAUUUUCUAUUAUUAGGUCAAAAAGCUCUACCCAGGCAACAGACACAAUCUGUGUGGAAUUCUCGGGUGCCAA | 0.31
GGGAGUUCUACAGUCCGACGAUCUGGAGCCCCAGCCCCACCUUAGCCCUGCUGAGGCUCCAUGGCUUCUCCACUUCUUCUCAUGUGACCUCACAGUGUUGCUACUGUUCCUAAUAAAGUUUUAAGUUAUUAGAUGGAAUUCUCGGGUGCCAA | 0.628

Study 4
Target: RING finger protein unkempt homolog, zinc fingers 1-6, SBP tag (UNK, Homo sapiens, UniProt Q9C0B0, residues 30-357)
Sequence of UniProt Q9C0B0 (30-357, looked up): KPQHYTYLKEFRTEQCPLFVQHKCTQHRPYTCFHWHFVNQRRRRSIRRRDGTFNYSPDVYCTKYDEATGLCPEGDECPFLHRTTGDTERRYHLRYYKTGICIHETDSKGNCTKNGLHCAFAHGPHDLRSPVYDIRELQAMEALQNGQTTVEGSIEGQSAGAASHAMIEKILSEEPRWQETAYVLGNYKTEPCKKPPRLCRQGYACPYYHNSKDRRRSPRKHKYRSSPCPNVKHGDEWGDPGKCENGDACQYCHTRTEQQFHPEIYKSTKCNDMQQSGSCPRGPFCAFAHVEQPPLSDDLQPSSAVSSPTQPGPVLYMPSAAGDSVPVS
Method: RNA Bind-n-Seq
Molecule type: RNA
Matrix: in vitro
Tested at: 100 nM
Setting: RNA with constant flanks, vertebrate orthologous sites, ends assumed
Baseline: input RNA pool
Direction: higher = stronger binding
Oligonucleotide | bound/input enrichment
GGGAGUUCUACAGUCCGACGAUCUUUGUUUUUGUUGGAUUUUUUGGUUUUUGGUUUGGUUUUUUUUGUUUUUUUGUUUUUGGUAGUUUGUUGUUACCCACGCCAUUUUACGUCUCCUUCACUGAAGGGCUAGAGUUUUAACUUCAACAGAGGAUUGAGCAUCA | 1.22 ratio
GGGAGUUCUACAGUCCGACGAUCUGAGGGAGAGAUUUCUGUGCUUUCUGAUAUUUAAUUUGCUCUUUUUAAGGUAUUCCAACCUAGAGUUUUUGAUGAAACUGAUAUAUUGACAGUUCUCACCUAAGUCCUUUUAUAAAGAAUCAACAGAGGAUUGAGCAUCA | 0.807 ratio
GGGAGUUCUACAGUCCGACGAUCUUGUGGCCGCUUCUCCCCUGCCUCAGUGAGGUAAAUUCUCCCUUGGCAUUUGGUUGGUACCAGAGUCAGCCACACCUAAUACAUGUUUCCACAUUUCUUUCACACUCGUAGUCAUCUUCGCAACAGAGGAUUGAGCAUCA | 0.359 ratio
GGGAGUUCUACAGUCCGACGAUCGUAUAUAAAUUACCCAAGGCAGUGACCAGCUUUAUAUAUACAUGUGUACAUAUAUAUAUCUUGUCGGUUUAAAAAUCAUCUACAUUUAUUUAAAGUUCUAUAUUGGAUUGUUUGCUCUGACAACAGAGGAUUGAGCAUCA | 0.751 ratio
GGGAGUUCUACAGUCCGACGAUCAUGCAUUUUGCCACUUGGAUGUGGUCUGCAUGGAAAGCUUCUGGCCUCUUCACAAUACCAAUUUAAUAUGUUUUUUUUUUAAGAUGUUAGGACUUAACUGAAUUUACUAAAAUGUAACUACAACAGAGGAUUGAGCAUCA | 0.524 ratio
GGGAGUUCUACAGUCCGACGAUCACUGUUGUUAAGCACUGUGUUGCAGACCGUGUCUGACUUAGUGUAACCUAGGAGAUUUUAUAGUUUUAUUUUAAUGAAAUUCUGAUUGACGCAGAGCAGUGGGGAGAACAGUCCCUUUUACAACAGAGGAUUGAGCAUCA | 2.73 ratio
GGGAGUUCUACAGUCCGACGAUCUAUGAGGGGGUUGCCUUGGCCCCUGCCUUGGCCUUGCCUCUCCUCCUUGCCACCUGUCCCUAGUUAUUUUUUUUUAACCACCACGUGAUUAUGGUCGGUGCUGCCUCUCCCCCGACCAGCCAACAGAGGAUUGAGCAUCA | 4.99 ratio
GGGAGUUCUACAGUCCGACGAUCGUCCCCUGAGCCGGGACAGAUUUUUUUUUUAACGUCUUGAAACUUAAAACUCUGUGCUUGUAGGAGACUGUAACCUUUUUGUCUUUUUAAAAAAAACAAUCUCCACCUCCAGUGGCUGUGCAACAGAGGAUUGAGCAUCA | 0.42 ratio
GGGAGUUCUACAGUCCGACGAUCAAAUUUAUUUCAUGCCCUGGACUCCCUAUCGUACCGAUACUUUAAUAGAAUAUGCUUCUUUAGAAGAUUUCCAAAAUAGUCGCCAAACAACAACAUAUAAACUUCCAAAUCGAGUAGAUGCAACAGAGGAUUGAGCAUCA | 1.67 ratio
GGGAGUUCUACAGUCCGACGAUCAAUAUUAUUAACAUCGUCUUCCUGUAUGGUUUUUUUUUUUUGUUUUUGUACCCUAGUAUCUACUUUACUUUUUAAAAUCUCAGACUUCACUGAUCUCUGAAUUGAUCCAGUUUUACAUUGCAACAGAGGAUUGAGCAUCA | 0.576 ratio
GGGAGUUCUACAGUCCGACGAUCUGCUCUCCUCCUGGGUGCGUGACUGAGGGCCAGGUGCCCUCCUCCAGUGCCGCGAGGGGUGCAUAGUGGUUUGGGGCUGCCUCCGAGUCCCCAAAGCCUUGGGGCAGAAGUGACAGUAGACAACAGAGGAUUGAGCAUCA | 0.271 ratio

Study 5
Target: PABPC1L2, full length, GST fusion (mouse, UniProt A0ABA7IW68)
Method: RNAcompete
Molecule type: RNA
Matrix: in vitro
Tested at: 20 nM
Setting: 7-mer, probes averaged, single round
Baseline: mean of 7-mers
Direction: higher = stronger binding
Construct (chain): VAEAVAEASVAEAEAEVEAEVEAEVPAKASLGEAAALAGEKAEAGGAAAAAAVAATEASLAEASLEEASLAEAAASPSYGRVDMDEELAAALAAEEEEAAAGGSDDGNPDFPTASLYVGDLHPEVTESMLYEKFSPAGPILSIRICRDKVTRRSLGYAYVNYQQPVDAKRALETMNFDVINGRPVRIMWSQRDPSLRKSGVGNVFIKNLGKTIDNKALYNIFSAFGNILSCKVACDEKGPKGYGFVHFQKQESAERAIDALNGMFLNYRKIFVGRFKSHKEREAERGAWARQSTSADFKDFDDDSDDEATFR
Oligonucleotide | 7-mer Z-score
UGAAAGG | -0.0319
AGGGAAG | 0.323
UGCGUUU | -0.45
UAGUUAA | -0.133
CGUACCA | -0.248
CAAAGUG | 0.263
CCCUCGG | -0.441
GACAUUG | 0.00617
CUCAGUG | -0.226
GGACACG | 0.1
UUACGUG | -0.18
UUCACUC | -0.373
ACAAGCU | -0.00652
UCGUCUU | -0.57
CCAGGCU | -0.195
UAUGAUC | -0.229
UAUGCAA | -0.13
AACACAA | 1.45
GGAGUUA | -0.0844
CUACUGA | -0.231
UUUCAGU | -0.345
AAAGAUG | 1.85
CUGCUAC | -0.309
UUCUGAC | -0.47

For quick reference, copied from above (study 1):
Oligonucleotide | log fluorescence [z-score]
TTAAATATCAGTTTCGATTAGTGCTAG | 10.2
GACGGACTGGGGTATCGGGACGTGCTA | 0.2
GACGATTCCAGTGTCGAGACGTGCTAG | -0.0372
GACGGTGTCGGGTATCGGGACGTGCTA | 0.229
TTAGGTTTCGACACTGGGTTGGTGCTA | 6.18
ATGCTTCTGTATTCATGAAGGTGCTAG | 0.445
GACGCACTGAGTATCGAGACGTGCTAG | 1.36
